# Earlier results that unrelated publications cite.
# Lines come from different studies, so protocols differ. ± marks the error that the study gave.
SMILES,cell line,test,conditions,how to read,measurement,value
O=c1c(O)ccccc1O,HepDES19,,up to 100 µM,,cytotoxicity,not toxic
O=C(Cn1cc(CNC(=O)c2c3ccccc3nc3ccccc23)nn1)Nc1cccc(Br)c1,MCF7,,,no toxicity up to value,cytotoxicity,> 200 µM
CCCCCCCCC1=C(CCCCCCCC(=O)O)C1,differentiated adipocytes,,100 or 200 µM,,viability,decreased
O=S(=O)(c1ccc(-c2ccc3nccc(Nc4ccc(OCc5cccc(F)c5)cc4)c3c2)cc1)N1CCOCC1,HepG2,,,,TC50,> 20 µM
CCOC(=O)C(NC(=O)CN1C(=O)N/C(=C\c2ccc3c(c2)OCO3)C1=O)C(C)C (stereo not shown),Caco-2,,concentration not given,,cytotoxicity,not toxic
CN1CCn2cc(C(=O)NCc3ccc(F)cc3F)c(=O)c(O)c2C1=O,HOS,"ATP level, 50% ATP reduction",,,CC50,> 250 µM
Cc1cc(N2CC[C@@](C#N)(C3(C)CC3)C2=O)cc(C(=O)NCc2cc(F)cc(-c3cnn(C)c3)c2)n1,MDA-MB-231,cytotoxicity,,,CC50,0.134 µM
O=C1c2ccccc2-c2c1c1ccc([N+](=O)[O-])cc1c(=O)n2C[C@H](O)CO,SF-539,cell growth,CNS cancer panel,,GI50,0.157 µM
COc1cncc(-c2cc(F)cc(CNC(=O)c3cc(N4CC[C@@](C#N)(C5CC5)C4=O)cc(C)n3)c2)c1,ARPE-19,cytotoxicity,,,CC50,0.783 µM
CCC(=O)OC1=C(C(C)C)C(=O)C2=C(C1=O)[C@@]1(C)CCCC(C)(C)[C@@H]1[C@H](OC(=O)CC)[C@H]2OC(C)=O,MEL1,,,,GI50,10 to 30 µM
O=C(NCc1ccc(F)cc1F)c1cn2c(c(O)c1=O)C(=O)N(CCCCCO)CC2,HOS,"ATP level, 50% ATP reduction",,,CC50,150 ± 3.9 µM
CCCC(=O)O[C@@H]1[C@@H](OC(C)=O)C2=C(C(=O)C(O)=C(C(C)C)C2=O)[C@@]2(C)CCCC(C)(C)[C@H]12,MEL1,,,,GI50,≤ 5 µM
CCOC(=O)C(CC)NC(=O)CN1C(=O)S/C(=C\c2ccc(OC)cc2)C1=O (stereo not shown),Caco-2,,concentration not given,,cytotoxicity,not toxic
O=C(NCc1ccc(F)cc1F)c1cn2c(c(O)c1=O)C(=O)N(CCCCCCO)CC2,HOS,"ATP level, 50% ATP reduction",,,CC50,> 250 µM
CC(=O)OC1=C(C(C)C)C(=O)C2=C(C1=O)[C@@]1(C)CCCC(C)(C)[C@@H]1[C@H](OC(C)=O)[C@H]2OC(C)=O,MEL1,,,,GI50,5 to 10 µM
O=C(NCc1ccc(F)cc1F)c1cn2c(c(O)c1=O)C(=O)N(CCCCO)CC2,HOS,"ATP level, 50% ATP reduction",,,CC50,> 250 µM
CC(=O)O[C@@H]1C[C@H]2C(C)(C)[C@H](O)CC[C@]2(C)[C@H]2CC[C@]34C[C@]3(CC[C@H]4[C@@H](C)C[C@@H](O)[C@H](O)C(C)(C)O)[C@@]21C,KB,,concentration not given,,cytotoxicity,toxic
Cc1cc(N2CCC(CO)(C3CC3)C2=O)cc(C(=O)NCc2cc(F)cc(-c3cnn(C)c3)c2)n1 (stereo not shown),ARPE-19,cytotoxicity,,,CC50,1.12 µM
CC(=O)O[C@@H]1[C@@H](OC(C)=O)C2=C(C(=O)C(O)=C(C(C)C)C2=O)[C@@]2(C)CCCC(C)(C)[C@H]12,MCF7,cell growth,,,GI50,10 to 30 µM
Cc1c(N)c(=O)n(-c2ccccc2)n1C,primary human hepatocytes,refers to: CYP2B6,concentration not given,baseline: untreated,protein level,increased
COCCn1ccn2cc(C(=O)NCc3ccc(F)cc3F)c(=O)c(O)c2c1=O,HOS,"ATP level, 50% ATP reduction",,,CC50,> 250 µM
O=C1c2ccccc2-c2c1c1ccc([N+](=O)[O-])cc1c(=O)n2C[C@H](O)[C@@H](O)[C@H](O)[C@H](O)CO,MCF7,cell growth,breast cancer panel,,GI50,0.88 µM
O=S(=O)(c1ccccc1)N1CCCCC1,Caco-2,,,baseline: Papp B-A over Papp A-B,efflux ratio,0.64
CC(=O)O[C@H]1C2=C(C(=O)C(O)=C(C(C)C)C2=O)[C@@]2(C)CCCC(C)(C)[C@@H]2[C@@H]1O,HL-60,cell growth,,,GI50,10 to 30 µM
COc1ccc(Oc2ccc([C@@H](C)N(C)c3ncc4c(N)nc(N)nc4n3)cc2)cc1,primary mouse macrophages,cell growth,,,active concentration,4 µM
CC(=O)O[C@H]1C2=C(C(=O)C(OC(=O)c3ccc([N+](=O)[O-])cc3)=C(C(C)C)C2=O)[C@@]2(C)CCCC(C)(C)[C@@H]2[C@@H]1O,MCF7,cell growth,,,GI50,10 to 30 µM
COc1ccc(NC(=O)/C=C(C)/C=C/C=C(C)/C=C/C2=C(C)CCCC2(C)C)cc1,malignant cell lines,,concentration not given,,cytotoxicity,not toxic
CC(C)C1=C(O)C(=O)C2=C(C1=O)[C@H](O)[C@@H](O)[C@H]1C(C)(C)CCC[C@]21C,MCR5,cell growth,,,GI50,10 to 30 µM
CNc1c(C)n(C)n(-c2ccccc2)c1=O,primary human hepatocytes,refers to: CYP3A4,concentration not given,baseline: untreated,protein level,increased
CC(=O)O[C@H]1C2=C(C(=O)C(O)=C(C(C)C)C2=O)[C@@]2(C)CCCC(C)(C)[C@@H]2[C@@H]1OC(=O)c1ccc([N+](=O)[O-])cc1,HL-60,cell growth,,,GI50,≤ 5 µM
OC[C@H]1O[C@@H](OCCCCCCCCCCC(F)(F)C(F)(F)C(F)(F)C(F)(F)F)[C@H](O)[C@@H](O)[C@@H]1O,B16-F10,"cytotoxicity, MTT",24 h,,EC50,32 µM

# For quick reference, copied from above:
SMILES,cell line,test,conditions,how to read,measurement,value
O=S(=O)(c1ccc(-c2ccc3nccc(Nc4ccc(OCc5cccc(F)c5)cc4)c3c2)cc1)N1CCOCC1,HepG2,,,,TC50,> 20 µM
CC(=O)O[C@H]1C2=C(C(=O)C(OC(=O)c3ccc([N+](=O)[O-])cc3)=C(C(C)C)C2=O)[C@@]2(C)CCCC(C)(C)[C@@H]2[C@@H]1O,MCF7,cell growth,,,GI50,10 to 30 µM
CCOC(=O)C(NC(=O)CN1C(=O)N/C(=C\c2ccc3c(c2)OCO3)C1=O)C(C)C (stereo not shown),Caco-2,,concentration not given,,cytotoxicity,not toxic
COc1ccc(Oc2ccc([C@@H](C)N(C)c3ncc4c(N)nc(N)nc4n3)cc2)cc1,primary mouse macrophages,cell growth,,,active concentration,4 µM
O=C(Cn1cc(CNC(=O)c2c3ccccc3nc3ccccc23)nn1)Nc1cccc(Br)c1,MCF7,,,no toxicity up to value,cytotoxicity,> 200 µM
